Measured values pooled from the literature.
Each numbered part is a random draw from the data of one study; scales do not carry over between parts. Positions count from the first letter of the parent shown.

Sample 1 — technique: DHFR PCA, deep sequencing; sample: yeast; with: (+)-ABA 1.4 µM; baseline: wild-type fitted maximum; reading: higher = stronger binding
Target: ABI1, truncated, D143A, DHFR fusion (Arabidopsis thaliana)
Notes: methotrexate growth selection, single substitutions
Starting sequence: PYL1, truncated, DHFR fusion (Arabidopsis thaliana); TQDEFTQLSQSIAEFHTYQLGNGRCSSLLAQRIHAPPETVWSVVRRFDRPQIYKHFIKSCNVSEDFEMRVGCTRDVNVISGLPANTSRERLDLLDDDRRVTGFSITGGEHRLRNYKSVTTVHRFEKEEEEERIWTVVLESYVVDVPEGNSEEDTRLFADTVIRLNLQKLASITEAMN; partner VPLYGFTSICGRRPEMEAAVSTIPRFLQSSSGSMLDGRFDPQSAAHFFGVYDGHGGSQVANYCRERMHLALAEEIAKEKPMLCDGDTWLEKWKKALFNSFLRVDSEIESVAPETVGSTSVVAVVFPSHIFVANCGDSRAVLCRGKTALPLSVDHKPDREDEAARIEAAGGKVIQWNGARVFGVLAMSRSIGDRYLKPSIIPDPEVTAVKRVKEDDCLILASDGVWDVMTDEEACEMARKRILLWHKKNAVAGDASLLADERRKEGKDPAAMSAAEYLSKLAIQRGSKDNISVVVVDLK
Substitution | relative binding score [%]
H16T | 10.8
I33H | 6.44
S80T | 45
D75T | 82.2
E128C | 61.5
G107F | -2.29
D95N | 26.8
R88F | 42.1
N149V | 39
Y18E | -3.24
G107Y | -18.3
F56H | -0.584
T17G | -2.38
F66A | 30.5
G107W | -0.34
Y115A | -6.77
R45K | 10.2
D48N | 23.7
Q51E | 47
R49T | 50.3
I57P | 0.677
W41P | -9.78
L112G | -3.15
V78Y | 80.1
V100Y | -2.35

Sample 2 — target: UBE2T UBC core domain (UniProt Q9NPD8); technique: yeast two-hybrid; sample: yeast; notes: mostly zero background; baseline: not given; reading: higher = stronger interaction
Sequence of UniProt Q9NPD8 (whole entry, looked up): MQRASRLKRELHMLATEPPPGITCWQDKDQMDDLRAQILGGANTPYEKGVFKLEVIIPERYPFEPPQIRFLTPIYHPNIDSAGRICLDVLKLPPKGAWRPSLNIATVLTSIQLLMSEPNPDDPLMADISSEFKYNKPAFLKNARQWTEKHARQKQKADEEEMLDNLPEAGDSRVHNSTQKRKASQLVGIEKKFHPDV
B1: TRIM28 RING domain (UniProt Q13263); chain GAEALELLEHCGVCRERLRPEREPRLLPCLHSACSACLGPAAPAAANSSGDGGAAGDGTVVDCPVCKQQCFSKDIVE
B2: TRIM47 RING domain (UniProt Q96LD4); chain MDGSGPFSCPICLEPLREPVTLPCGHNFCLACLGALWPHRGASGAGGPGGAARCPLCQEPFPDGLQLR
B3: PJA2 RING domain (UniProt O43164); chain DHTAIGQEQCCPICCSEYIKDDIATELPCHHFFHKPCVSIWLQKSGTCPVCRRHFPPAVIEA
B4: RMND5B RING domain (UniProt Q96G75); chain MKCWYHSVFACPILRQQTSDSNPPIKLICGHVISRDALNKLINGGKLKCPYCPMEQNPADGK
B5: CBLL1 RING domain (UniProt Q75N03); chain GEKDDTPVHFCDKCGLPIKIYGRMIPCKHVFCYDCAILHEKKGDKMCPGCSDPVQRIEQCT
B6: TRIM34 RING domain (UniProt Q9BYJ4); chain ILLNVQEEVTCPICLELLTEPLSLDCGHSLCRACITVSNKEAVTSMGGKSSCPVCGISYSFEHLQA
B7: NHLRC1 RING domain (UniProt Q6VVB1); chain MREAEISLLECKVCFEKFGHRQQRRPRNLSCGHVVCLACVAALAHPRTLALECPFCRRACRGCDTSD
B8: RNF17 RING domain (UniProt Q9BXT8); chain SQPWGAAEIQCTRCGRRVSRSSGHHCELQCGHAFCELCLLMTEECTTIICPDCEVATAVNTRQR
B9: RNF115 RING domain (UniProt Q9Y4L5); chain TQEQVDMGLECPVCKEDYTVEEEVRQLPCNHFFHSSCIVPWLELHDTCPVCRKSLNGEDSTR
B10: TRIM32 RING domain (UniProt Q13049); chain NLDALREVLECPICMESFTEEQLRPKLLHCGHTICRQCLEKLLASSINGVRCPFCSKITRITSLTQ
B11: SHPRH RING domain (UniProt Q149N8); chain KTSGGVNPEPCPICARQLGKQWAVLTCGHCFCNECISIIIEQYSVGSHRSSIKCAICRQTTSHKEISY
B12: MDM2 RING domain (UniProt Q00987); chain TQDKEESVESSLPLNAIEPCVICQGRPKNGCIVHGKTGHLMACFTCAKKLKKRNKPCPVCRQPIQMIVLTYFP
B13: TRIM68 RING domain (UniProt Q6AZZ1); chain LVEAIVEEVACPICMTFLREPMSIDCGHSFCHSCLSGLWEIPGESQNWGYTCPLCRAPVQPRNLRP
Sequence | lacZ reporter activity
B1 (TRIM28 RING domain) | 0
B2 (TRIM47 RING domain) | 0
B3 (PJA2 RING domain) | 0
B4 (RMND5B RING domain) | 0
B5 (CBLL1 RING domain) | 0
B6 (TRIM34 RING domain) | 0
B7 (NHLRC1 RING domain) | 0
B8 (RNF17 RING domain) | 0
B9 (RNF115 RING domain) | 0
B10 (TRIM32 RING domain) | 0
B11 (SHPRH RING domain) | 0
B12 (MDM2 RING domain) | 0
GSEEEEIPFRCFICRQAFQNPVVTKCRHYFCESCALEHFRATPRCYICDQPTGGIFNPA (RNF113B RING domain (UniProt Q8IZP6)) | 0
EDVLSKDAGECAICLEELQQGDTIARLPCLCIYHKGCIDEWFEVNRSCPEHPSD (ZNRF2 RING domain (UniProt Q8NHG8)) | 0
B13 (TRIM68 RING domain) | 0

Sample 3 — target: CCND1, cyclin fold, Cln2 fusion (human); technique: yeast growth competition, sequencing; sample: yeast; notes: weak parent motif; baseline: not given; reading: higher = stronger binding
Starting sequence: BRCA2 docking peptide (human); CKKRRALDFLSRL
Substitution | normalised enrichment score
AKKRRALDFLSRL [C1A] | 0.353
CKKRKALDFLSRL [R5K] | 0.631
CKKRRALAFLSRL [D8A] | 0.404
CKARRALDFLSRL [K3A] | 0.653
CKKARALDFLSRL [R4A] | 0.244
CKKRAAADFLSRL [R5A L7A] | 0.558
CKKRRALDFASRL [L10A] | 0.708
CAKRRALDFLSRL [K2A] | 0.618
CKKRRALDLLSRL [F9L] | 0.806

Sample 4 — technique: protein-binding microarray; form: double-stranded DNA, one strand shown; sample: in vitro; concentration: not given; reading: higher = stronger binding
Target: Hepatocyte nuclear factor 3-beta, forkhead domain (FOXA2, Homo sapiens, UniProt Q9Y261, residues 142-269)
Notes: k-mer, scored over probes, only values ≥0.25
Construct (chain): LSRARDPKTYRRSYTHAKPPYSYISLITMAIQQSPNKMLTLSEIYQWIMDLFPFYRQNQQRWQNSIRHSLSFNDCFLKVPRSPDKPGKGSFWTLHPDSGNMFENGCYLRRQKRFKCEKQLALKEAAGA
Oligonucleotide | E-score
GACATAAC | 0.299
ACGTTGAT | 0.314
ACATACAG | 0.341
ATAAAGTA | 0.342
ATATTAAA | 0.336
AAAGTTAT | 0.258
CTAATATA | 0.401
GTATGATA | 0.386
ATAATATC | 0.289
CGTTGTTA | 0.26
GTCACTAA | 0.266
AGTAATAG | 0.266
AACACAAC | 0.281
AACATATT | 0.335
TAACACTA | 0.343
ATCAAACA | 0.341
TAGTATCA | 0.253
AGATACAG | 0.266
ACTAATAA | 0.308
GTAATAAC | 0.272

Sample 5 — target: CREB3, bZIP domain (human); technique: DHFR protein complementation; sample: yeast; baseline: wild-type JUN-FOS pair; reading: higher = stronger binding
Notes: single substitutions, most at no-binding floor
Starting sequence: JUN, bZIP domain (human); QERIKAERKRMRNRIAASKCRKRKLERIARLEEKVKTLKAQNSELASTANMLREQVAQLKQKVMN; partner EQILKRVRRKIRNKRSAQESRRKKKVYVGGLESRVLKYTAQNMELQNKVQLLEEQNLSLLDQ
Substitution | binding fitness [natural log]
A46I | -1.45
K39F | -1.38
A49W | -1.53
S47I | -1.48
E44V | -1.46
A29I | -1.56
K34V | -1.5
S43H | -1.47
R53Q | -1.45
A46N | -1.44
T37G | -1.41
K36R | -1.41
I28N | -1.37
S43F | -1.27
V56K | -1.48
A49F | -1.47
Q41K | -1.54
A57V | -1.03
L38E | -1.55
Q58P | -1.42
V56D | -1.54
A49Q | -1.47
M51I | -1.26

For quick reference, copied from above (sample 2):
Sequence | lacZ reporter activity
B1 (TRIM28 RING domain) | 0
B7 (NHLRC1 RING domain) | 0
B2 (TRIM47 RING domain) | 0
B10 (TRIM32 RING domain) | 0
B3 (PJA2 RING domain) | 0
B11 (SHPRH RING domain) | 0
B6 (TRIM34 RING domain) | 0
GSEEEEIPFRCFICRQAFQNPVVTKCRHYFCESCALEHFRATPRCYICDQPTGGIFNPA (RNF113B RING domain (UniProt Q8IZP6)) | 0
B13 (TRIM68 RING domain) | 0
EDVLSKDAGECAICLEELQQGDTIARLPCLCIYHKGCIDEWFEVNRSCPEHPSD (ZNRF2 RING domain (UniProt Q8NHG8)) | 0
